Published values gathered from unrelated publications.
Each numbered part is a random draw from the data of one study; scales do not carry over between parts. Positions count from the first letter of the parent shown.

Set 1 — target: CCND3, cyclin fold, Cln2 fusion (human); technique: yeast growth competition, sequencing; matrix: yeast; notes: weak parent motif; baseline: not given; direction: higher = stronger binding
Starting sequence: SCAPER docking peptide (human); SNARRSLNFGGST; partner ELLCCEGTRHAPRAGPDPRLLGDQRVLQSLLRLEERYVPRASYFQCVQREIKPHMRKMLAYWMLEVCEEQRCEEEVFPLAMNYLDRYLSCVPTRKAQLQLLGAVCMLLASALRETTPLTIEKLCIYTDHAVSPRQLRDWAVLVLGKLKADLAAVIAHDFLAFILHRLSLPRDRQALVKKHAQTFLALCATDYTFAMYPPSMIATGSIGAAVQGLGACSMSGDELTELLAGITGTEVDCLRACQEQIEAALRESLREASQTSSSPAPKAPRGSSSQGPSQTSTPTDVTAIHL
| Substitution | normalised enrichment score |
| --- | --- |
| SNARRSDNFGGST [L7D] | 0.16 |
| SNAHRSLNFGGST [R4H] | 0.0876 |
| SNARRDLNFGGST [S6D] | 0.152 |
| SNARASLNFGGST [R5A] | 0.0815 |
| SNARRSLNFGGVT [S12V] | 0.0151 |
| SNARLSLNFGGST [R5L] | 0.124 |
| SNARRSLNFQGST [G10Q] | 0.147 |
| SNARRSLNCGGST [F9C] | 0.0851 |
| SNARRSLNFGGSL [T13L] | 0.151 |
| SNARVSLNFGGST [R5V] | 0.121 |
| SNARRSSNFGGST [L7S] | 0.148 |
| SNARRSLNPGGST [F9P] | 0.0966 |
| SNARRSLFFGGST [N8F] | 0.104 |
| SNARFSLNFGGST [R5F] | 0.167 |
| SCARRSLNFGGST [N2C] | 0.0497 |

Set 2 — target: ATF3, bZIP domain (human); technique: DHFR protein complementation; matrix: yeast; baseline: wild-type JUN-FOS pair; direction: higher = stronger binding
Notes: single substitutions, most at no-binding floor
Starting sequence: JUN, bZIP domain (human); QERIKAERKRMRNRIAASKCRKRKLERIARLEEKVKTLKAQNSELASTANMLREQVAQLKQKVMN; partner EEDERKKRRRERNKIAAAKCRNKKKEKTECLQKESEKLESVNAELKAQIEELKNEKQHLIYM
| Substitution | binding fitness [natural log] |
| --- | --- |
| I28N | -0.266 |
| E44L | -0.169 |
| Q41S | -1.22 |
| V56A | -1.24 |
| T37I | -0.108 |
| E33S | -0.302 |
| T48E | -0.0779 |
| E32W | -0.681 |
| T37M | 0.102 |
| A40M | -0.00944 |
| E33N | -0.289 |
| L31V | -0.514 |
| E54I | -0.189 |
| L45Y | -0.416 |
| E54D | -0.273 |
| Q55Y | -0.589 |
| R30I | -0.0662 |
| L31A | -0.431 |
| Q41E | -0.00702 |
| E32K | -0.206 |
| S43E | 0.0195 |

Set 3 — technique: RNA Bind-n-Seq; form: RNA; matrix: in vitro; concentration: 1 µM; notes: whole 134-nt RNA, ends assumed; with: 150 mM KCl; baseline: input library; direction: higher = stronger binding
Target: Ras GTPase-activating protein-binding protein 1, C-terminal RGG region (G3BP1, Homo sapiens, UniProt Q13283)
Chain of UniProt Q13283 (whole entry, looked up): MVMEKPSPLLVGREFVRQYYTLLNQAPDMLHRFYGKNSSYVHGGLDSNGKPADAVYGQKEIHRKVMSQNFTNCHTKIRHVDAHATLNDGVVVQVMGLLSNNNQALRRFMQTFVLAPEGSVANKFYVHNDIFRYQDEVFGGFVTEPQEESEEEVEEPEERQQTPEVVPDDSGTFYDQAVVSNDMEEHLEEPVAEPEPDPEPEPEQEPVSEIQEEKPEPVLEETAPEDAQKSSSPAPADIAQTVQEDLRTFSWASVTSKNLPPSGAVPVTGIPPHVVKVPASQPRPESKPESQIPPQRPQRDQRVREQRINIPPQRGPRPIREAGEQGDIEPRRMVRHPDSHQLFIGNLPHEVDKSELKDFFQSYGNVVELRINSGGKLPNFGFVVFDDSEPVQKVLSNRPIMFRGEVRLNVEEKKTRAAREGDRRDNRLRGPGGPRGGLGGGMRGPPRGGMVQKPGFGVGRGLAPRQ
Constant ends, left off below: GGGAGUUCUACAGUCCGACGAUC … UGGAAUUCUCGGGUGUCAAGG
| Sequence | log2 enrichment |
| --- | --- |
| ACCAUGCAGGUGGGCAUCUUUGGGAAGUGGGUCAAGGGGGGGAUAGGGAGGGGGGUAACACUUUGGGAACAGGUGGUCCCAGGUCGUUUC | -0.374 |
| GUGCUACACAUCGUAUGUACCGAAUCGGGGUUUUUUUGGGGUUUUUUUGGGGAAAAAAAGGGGAAAGUAUUAUGUUACGCCGUUCGGAUC | 0.101 |
| CUCAAGUCCUGUGCUACACAUCGUAUGUACCGAAUCGGGGCGGGCGGGGCGGGAAAGUAUUAUGUUACGCCGUUCGGAUCUGCACUUCCA | 1.29 |
| UGUACUCGGAAGUUUCACUUACCAUCGACCACUCUCUGAUUCCGGAGGAGAGGCUCUCGCCCACCCCAUCCAUGCAGGAUGGGCUCGACC | -0.555 |
| AGUCCUGUGCUACACAUCGUAUGUACCGAAUCGGGGUUUUUGGGGUUUGGGGAGGGGAAAGUAUUAUGUUACGCCGUUCGGAUCUGCACU | 3.27 |
| UCAAGUCCUGUGCUACACAUCGUAUGUACCGAAUCGGGUUGGGUUGGGUUGGGGAAAGUAUUAUGUUACGCCGUUCGGAUCUGCACUUCC | 2.9 |
| UGGCCCUGGUGGCAUGCGGGGAGGAAGAGGUGGCCUCAGGGAUCGUGGUGGUCCCGGUGGAAUGUUCAGAGGUGGCCGUGGUGGAGACAG | 2.23 |
| CUGUGCUACACAUCGUAUGUACCGAAUCGGGGUUUUUUUGGGGUUUUUUUGGUUUUUUUGGGAAAGUAUUAUGUUACGCCGUUCGGAUCU | -1.22 |
| AAGUCCUGUGCUACACAUCGUAUGUACCGAAUCGGAAAAAAAGGAAAAAGGUUUGGAAAGUAUUAUGUUACGCCGUUCGGAUCUGCACUU | -2.33 |
| UGGGAGGUGGAUUUUGUUUAUUUUUUUAGCUCAUUUCCAGGGGUGGGAGUUUUUUUUUAAUAUGUGUCAUGAAUAAAGUUGUUUUUGAAA | 3.15 |
| CAAGUCCUGUGCUACACAUCGUAUGUACCGAAUCGGGGUUUGGGGUUUGGUUUGGGAAAGUAUUAUGUUACGCCGUUCGGAUCUGCACUU | -0.885 |
| CUCAAGUCCUGUGCUACACAUCGUAUGUACCGAAUCGUGUGUGUGUGUGUGUGUAAAGUAUUAUGUUACGCCGUUCGGAUCUGCACUUCC | 0.563 |
| ACCAUGCAGGUGGGCAUCUUUGGGAAGUGGGGCAAGGGGGGGAUAGGGAGGGGGGUAACACUGUGGGAACAGGUGGUCCCAGGUCGUUUC | 3.01 |
| GUCCUGUGCUACACAUCGUAUGUACCGAAUCGGGGUUUGGGGAGGGGAAAAAAAGGGGAAAGUAUUAUGUUACGCCGUUCGGAUCUGCAC | 1.4 |

Set 4 — target: UBE2N UBC core domain (UniProt P61088); technique: yeast two-hybrid; matrix: yeast; notes: mostly zero background; baseline: not given; direction: higher = stronger interaction
B1: RNF38 RING domain (UniProt Q9H0F5); chain PNNHQSEQTLCVVCMCDFESRQLLRVLPCNHEFHAKCVDKWLKANRTCPICRADASEVHRDS
B2: RNF208 RING domain (UniProt Q9H0X6); chain SSAAAGEPLECPTCGHSYNVTQRRPRVLSCLHSVCEQCLQILYESCPKYKFISCPTCRRETVLFTDYG
B3: SH3RF2 RING domain (UniProt Q8TEC5); chain DDLTLLDLLECPVCFEKLDVTAKVLPCQHTFCKPCLQRVFKAHKELRCPECRTPVFSNIEAL
B4: TRIM4 RING domain (UniProt Q9C037); chain EAEDIQEELTCPICLDYFQDPVSIECGHNFCRGCLHRNWAPGGGPFPCPECRHPSAPAALRP
B5: TRIM5 RING domain (UniProt Q9C035); chain ILVNVKEEVTCPICLELLTQPLSLDCGHSFCQACLTANHKKSMLDKGESSCPVCRISYQPENIRP
B6: TRIM43 RING domain (UniProt Q96BQ3); chain FSHAFQKELTCVICLNYLVDPVTICCGHSFCRPCLCLSWEEAQSPANCPACREPSPKMDFKT
B7: RNF111 RING domain (UniProt Q6ZNA4); chain EGTEEDTEEKCTICLSILEEGEDVRRLPCMHLFHQVCVDQWLITNKKCPICRVDIEAQLPSE
B8: TRIM5 RING domain (UniProt Q9C035); chain LREVKLSPEGQKVDHCARHGEKLLLFCQEDGKVICWLCERSQEHRGHHTFLTEEVAREYQVKL
B9: MKRN1 RING domain (UniProt Q9UHC7); chain FAVQRSKDMVCGICMEVVYEKANPSERRFGILSNCNHTYCLKCIRKWRSAKQFESKIIKSCPECRITSNFVIPSE
B10: VPS41 RING domain (UniProt P49754); chain KGVLVDEENICESCLSPILPSDAAKPFSVVVFHCRHMFHKECLPMPSMNSAAQFCNICSAKNRGPGSAI
B11: DTX4 RING domain (UniProt Q9Y2E6); chain QKVRHPPDEDCTICMERLTAPSGYKGPQPTVKPDLVGKLSRCGHVYHIYCLVAMYNNGNKDGSLQCPTCKTIYGVKTGTQ
Residues (chain): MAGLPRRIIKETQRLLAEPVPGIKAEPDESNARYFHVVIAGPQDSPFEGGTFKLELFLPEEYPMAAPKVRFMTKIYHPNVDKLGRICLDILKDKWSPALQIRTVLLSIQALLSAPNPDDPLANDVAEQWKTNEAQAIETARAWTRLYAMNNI
| Sequence | lacZ reporter activity |
| --- | --- |
| VEPSEENSKDCVVCQNGTVNWVLLPCRHTCLCDGCVKYFQQCPMCRQFVQESFALC (CGRRF1 RING domain (UniProt Q99675)) | 0 |
| B1 (RNF38 RING domain) | 0 |
| B2 (RNF208 RING domain) | 0 |
| B3 (SH3RF2 RING domain) | 11500 |
| B4 (TRIM4 RING domain) | 0 |
| B5 (TRIM5 RING domain) | 0 |
| B6 (TRIM43 RING domain) | 0 |
| B7 (RNF111 RING domain) | 0 |
| B8 (TRIM5 RING domain) | 0 |
| B9 (MKRN1 RING domain) | 0 |
| B10 (VPS41 RING domain) | 0 |
| MPIRALCTICSDFFDHSRDVAAIHCGHTFHLQCLIQWFETAPSRTCPQCRIQVGKRTIIN (TRAIP RING domain (UniProt Q9BWF2)) | 0 |
| B11 (DTX4 RING domain) | 0 |

Set 5 — technique: DHFR PCA, deep sequencing; matrix: yeast; with: (+)-ABA 0.0091 µM; baseline: wild-type fitted maximum; direction: higher = stronger binding
Target: ABI1, truncated, D143A, DHFR fusion (Arabidopsis thaliana)
Notes: methotrexate growth selection, single substitutions
Starting sequence: PYL1, truncated, DHFR fusion (Arabidopsis thaliana); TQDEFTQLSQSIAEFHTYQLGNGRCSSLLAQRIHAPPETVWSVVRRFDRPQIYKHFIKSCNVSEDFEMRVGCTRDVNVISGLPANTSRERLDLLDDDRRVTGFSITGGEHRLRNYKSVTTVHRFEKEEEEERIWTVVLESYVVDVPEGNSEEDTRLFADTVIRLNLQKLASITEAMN; partner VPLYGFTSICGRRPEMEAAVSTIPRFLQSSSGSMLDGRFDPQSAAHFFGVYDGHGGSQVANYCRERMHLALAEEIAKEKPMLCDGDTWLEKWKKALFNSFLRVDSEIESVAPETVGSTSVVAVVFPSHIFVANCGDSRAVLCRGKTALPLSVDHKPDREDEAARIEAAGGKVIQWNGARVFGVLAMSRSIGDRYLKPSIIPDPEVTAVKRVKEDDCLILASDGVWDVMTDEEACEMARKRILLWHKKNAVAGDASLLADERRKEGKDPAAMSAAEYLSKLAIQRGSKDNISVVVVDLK
| Substitution | relative binding score [%] |
| --- | --- |
| R132H | 29.1 |
| L164Y | 4.91 |
| S9H | 25 |
| G21V | 19.6 |
| Y115M | 1.15 |
| Y115G | 5.24 |
| F103T | -7.95 |
| L138P | 7.46 |
| R45S | 0.0184 |
| L91I | 2.23 |
| S9Y | 26.1 |
| T86L | 20.4 |

A few entries again (set 4):
| Sequence | lacZ reporter activity |
| --- | --- |
| B1 (RNF38 RING domain) | 0 |
| B2 (RNF208 RING domain) | 0 |
| B3 (SH3RF2 RING domain) | 11500 |
| B4 (TRIM4 RING domain) | 0 |
| B5 (TRIM5 RING domain) | 0 |
| B6 (TRIM43 RING domain) | 0 |
| B7 (RNF111 RING domain) | 0 |
| B8 (TRIM5 RING domain) | 0 |
| B9 (MKRN1 RING domain) | 0 |
